Assay results from different studies.
Numbered parts are unrelated; each lists some results of a single study. Changes are numbered by the printed parent chain.

Block 1
Target: MAFK, bZIP domain (human)
Technique: DHFR protein complementation
Matrix: yeast
Setting: single substitutions, most at no-binding floor
Baseline: wild-type JUN-FOS pair
Direction: higher = stronger binding
Endpoint: binding fitness
Parent: JUN, bZIP domain (human); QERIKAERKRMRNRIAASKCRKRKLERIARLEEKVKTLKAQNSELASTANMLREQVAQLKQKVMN; partner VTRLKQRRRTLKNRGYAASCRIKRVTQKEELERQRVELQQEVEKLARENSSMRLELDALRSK
Change = L38R; result = -1.51 natural log
Change = V35R; result = -1.39 natural log
Change = L38T; result = -1.49 natural log
Change = L59R; result = -1.18 natural log
Change = V56S; result = -1.54 natural log
Change = A40Y; result = -1.49 natural log
Change = L31T; result = -1.53 natural log
Change = E54W; result = -1.51 natural log
Change = S47Y; result = -1.55 natural log
Change = A49D; result = -1.47 natural log
Change = T37H; result = -1.49 natural log
Change = V35P; result = -1.52 natural log
Change = L59H; result = -1.53 natural log
Change = V56D; result = -1.48 natural log
Change = L31M; result = -1.32 natural log
Change = V56Q; result = -1.46 natural log
Change = N42H; result = -1.44 natural log
Change = L38Y; result = -1.46 natural log
Change = S47I; result = -1.47 natural log
Change = V35G; result = -1.51 natural log
Change = E44R; result = -1.38 natural log
Change = K34A; result = -1.45 natural log
Change = R53G; result = -1.53 natural log
Change = T37K; result = -1.45 natural log
Change = L52W; result = -1.39 natural log

Block 2
Target: Sal-like protein 4, full length isoform A (SALL4, Homo sapiens, UniProt Q9UJQ4, residues 1-1053)
Sequence of UniProt Q9UJQ4 (whole entry, looked up): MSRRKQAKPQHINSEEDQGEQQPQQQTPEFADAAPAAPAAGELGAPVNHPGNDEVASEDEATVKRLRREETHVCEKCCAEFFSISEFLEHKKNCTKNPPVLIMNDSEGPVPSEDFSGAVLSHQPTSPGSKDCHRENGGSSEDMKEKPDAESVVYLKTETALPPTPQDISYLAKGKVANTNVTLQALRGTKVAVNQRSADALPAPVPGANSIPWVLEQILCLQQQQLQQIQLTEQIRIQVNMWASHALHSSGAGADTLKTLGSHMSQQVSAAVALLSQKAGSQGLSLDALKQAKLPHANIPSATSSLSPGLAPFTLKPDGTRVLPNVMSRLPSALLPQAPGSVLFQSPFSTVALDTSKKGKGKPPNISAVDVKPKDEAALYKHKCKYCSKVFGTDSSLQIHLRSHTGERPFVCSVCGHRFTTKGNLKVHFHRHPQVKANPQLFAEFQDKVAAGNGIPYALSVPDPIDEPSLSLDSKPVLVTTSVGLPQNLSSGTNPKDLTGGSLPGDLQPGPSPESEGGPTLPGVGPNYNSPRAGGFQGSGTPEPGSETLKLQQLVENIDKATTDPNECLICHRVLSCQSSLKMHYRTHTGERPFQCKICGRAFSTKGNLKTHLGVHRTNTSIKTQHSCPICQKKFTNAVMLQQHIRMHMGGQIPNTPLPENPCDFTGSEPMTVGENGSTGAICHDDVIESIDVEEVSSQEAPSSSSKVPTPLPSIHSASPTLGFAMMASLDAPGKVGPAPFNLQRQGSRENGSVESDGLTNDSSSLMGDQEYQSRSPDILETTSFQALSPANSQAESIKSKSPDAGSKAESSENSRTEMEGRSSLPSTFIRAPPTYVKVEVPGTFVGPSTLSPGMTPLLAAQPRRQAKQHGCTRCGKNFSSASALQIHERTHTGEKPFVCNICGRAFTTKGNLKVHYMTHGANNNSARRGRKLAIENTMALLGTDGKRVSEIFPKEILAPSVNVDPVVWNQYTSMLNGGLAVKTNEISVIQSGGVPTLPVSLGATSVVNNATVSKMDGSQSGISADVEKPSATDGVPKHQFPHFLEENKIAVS
Technique: universal PBM
Form: double-stranded DNA, one strand shown
Matrix: in vitro
Tested at: 600 nM
Setting: 8-mer, flanks averaged, mean of replicates
Direction: higher = stronger binding
Endpoint: E-score
Strand = CAGCCGCG; result = -0.251
Strand = ACGTTCTG; result = -0.193
Strand = TCTAGGAA; result = 0.139
Strand = CCCGTTAC; result = 0.102
Strand = GGACCAAA; result = -0.125
Strand = AGGAATTC; result = -0.0209
Strand = ATACCTTA; result = 0.206
Strand = CATCCCCC; result = -0.312
Strand = ACGACGAA; result = 0.0303
Strand = AGCCGTAT; result = -0.0109
Strand = TTATGCAA; result = 0.279
Strand = GATCGTAC; result = -0.125
Strand = GGCTGGAA; result = -0.187
Strand = CAGACTAG; result = -0.181
Strand = ACGTCTAC; result = 0.0292
Strand = CGTGAGTA; result = -0.0706
Strand = AAATTCGT; result = 0.265
Strand = CATTGGAC; result = -0.0252
Strand = GATCATAA; result = 0.347
Strand = CGGAAATC; result = -0.124
Strand = GTAAGTCA; result = 0.113
Strand = ATTTGAGA; result = 0.189
Strand = CTGTATTA; result = 0.277
Strand = GATAGTCC; result = -0.0322
Strand = AACATACC; result = 0.137

Block 3
Target: RING finger protein unkempt homolog, zinc fingers 1-6, GST-SBP tag (UNK, Homo sapiens, UniProt Q9C0B0, residues 30-357)
Sequence of UniProt Q9C0B0 (30-357, looked up): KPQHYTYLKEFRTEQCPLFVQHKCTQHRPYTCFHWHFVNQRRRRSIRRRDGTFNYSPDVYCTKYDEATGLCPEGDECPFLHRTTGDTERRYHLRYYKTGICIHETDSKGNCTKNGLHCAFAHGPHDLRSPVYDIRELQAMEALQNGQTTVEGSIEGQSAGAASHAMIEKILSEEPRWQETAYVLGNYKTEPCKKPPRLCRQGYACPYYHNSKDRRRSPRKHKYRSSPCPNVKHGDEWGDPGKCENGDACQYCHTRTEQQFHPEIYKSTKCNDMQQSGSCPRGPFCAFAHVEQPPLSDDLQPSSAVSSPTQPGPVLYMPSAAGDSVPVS
Technique: RNA Bind-n-Seq
Form: RNA
Matrix: in vitro
Tested at: not given
Setting: RNA with constant flanks, ends assumed
Baseline: input RNA pool
Direction: higher = stronger binding
Endpoint: bound/input enrichment
Strand = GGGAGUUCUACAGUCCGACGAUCAGGUGCAAAGAAAAAGACUUGGAUGAUACCUGCAUGCUGCAUAAGAAGUCAGAAAGCCCAUUCCGAGAAACAGAACCUCUGGUGUCACCACACCAAGAUAAACUCAUGUCUAUGCCAGUUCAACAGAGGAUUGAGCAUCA; result = 0.179 ratio
Strand = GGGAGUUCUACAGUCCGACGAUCAUUAUUCAGGUUGACAAAGCUUAUGACUACCUCAUUCAAAAUACAUCAUUUGCUAACAGAUCCGGUUUUACAGUUACUGUUGGAAAUAACCGUGGUAUCUACCUCCGAGAUCCUGUCCAGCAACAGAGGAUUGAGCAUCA; result = 0.135 ratio
Strand = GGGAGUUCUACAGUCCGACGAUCCGAUAAUACUUGACCUCUGUGACCAACUAUUGGAUUGAGAAACUGACAAGCCUUGGUUGACCGCAAGAACCCUUUCAGUUUACAUUGUGACAUUCUGUUGUAAAAAUCAACUAAAAUGCUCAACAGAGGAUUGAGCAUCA; result = 0.197 ratio
Strand = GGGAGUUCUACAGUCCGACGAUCUCCAGACAGGAAGAACAAAACCCAUUCUAGCACUUUCAUUUUUAAAAAAAAAAAGGUUUACCGCUUUUUGUUCCGCCCUCCUCCUCCCCAUUUCACAAUGUCCAUUCCUUAAGAAGGGUUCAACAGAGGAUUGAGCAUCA; result = 7.62 ratio
Strand = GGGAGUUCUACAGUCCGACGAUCACUCCUGUGUCAUAUGACCAGGGGGCAAAUAUGGCCAAGCAGAUCGGAGCAGCCACUUACACCGAAUGCUCAGCUUUACAGUCAGAAAACAGCGUCAGAGACAUUUUUCACGUCGCCACCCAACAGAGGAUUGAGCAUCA; result = 0.13 ratio
Strand = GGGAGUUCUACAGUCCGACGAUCCCCACCCACCUACCAGCACUUAAGGCCUAGGACACAAGGUCUGUGUGGCCUCCCAGGCUGCCGGUACCCUCAUCUGCAGAAAAUCAGGGACUAGGAGCAGAGCCCCUCACUGAGCAUGUCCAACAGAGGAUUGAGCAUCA; result = 0.172 ratio
Strand = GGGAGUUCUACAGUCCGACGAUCGAGCAGGGUGACAUGGCUGGCAAUUCUGCUUUAUAAAAUCGUGUCUCUAAAACUGUGUUCAUGUGUCCCGGAAGUAUUUAAUAAACUUGUGUAGAAACUUUUUGUGGUUGGGCCCUGGGACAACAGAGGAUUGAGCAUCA; result = 1.17 ratio
Strand = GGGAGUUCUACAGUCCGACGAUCUUCCACCUGUAUUAGUUAUCUAUUGCUGUGUAAAAAAUUACCCUAAAUUUAGUAUGUUAAAACCGUAAACAUUAUCUGUCAGUUUCUGUGGGUUAAGAAUUUGGGAGUAGUUUAACAUGACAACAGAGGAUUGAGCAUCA; result = 2.59 ratio
Strand = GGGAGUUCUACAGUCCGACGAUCUUUUUGGGAAUUGCUUACAUCACUAUUGGAUCCAUCUCUUUCCUUCUGGGAGUUGUACUGCCCGUAAUUAAUCAUAAAUAUAGAAACAGUAGUAACACUGCUGACAUCACCAUUUAAUUUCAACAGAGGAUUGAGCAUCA; result = 2.29 ratio
Strand = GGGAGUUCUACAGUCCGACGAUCUUGUCUCCUGCAUUCCAUCAAGCACUACUCUCUUUUUGUCGAAUGUCAGCAGAUAGUCGUUCCGGAUACGAGGUGUCUCGUAUUGCAGACAGUGAAAAAAGCGUUAUGUUAAUGCUGGGACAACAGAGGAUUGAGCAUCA; result = 0.101 ratio
Strand = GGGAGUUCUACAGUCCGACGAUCAGUGUUAAAUUUAACCCAAUUGAGACAUUUCUCUUGGGAAGUUGUGCAUCUGACAGGAAUACCGUACUGUACGAUAUGAGGCAAGCUACUCCUUUGAAAAAGGUUAUCUUAGAUAUGAGACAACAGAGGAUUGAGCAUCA; result = 0.212 ratio

Block 4
Target: Ras GTPase-activating protein-binding protein 1, RRM domain (G3BP1, Homo sapiens, UniProt Q13283)
Sequence of UniProt Q13283 (whole entry, looked up): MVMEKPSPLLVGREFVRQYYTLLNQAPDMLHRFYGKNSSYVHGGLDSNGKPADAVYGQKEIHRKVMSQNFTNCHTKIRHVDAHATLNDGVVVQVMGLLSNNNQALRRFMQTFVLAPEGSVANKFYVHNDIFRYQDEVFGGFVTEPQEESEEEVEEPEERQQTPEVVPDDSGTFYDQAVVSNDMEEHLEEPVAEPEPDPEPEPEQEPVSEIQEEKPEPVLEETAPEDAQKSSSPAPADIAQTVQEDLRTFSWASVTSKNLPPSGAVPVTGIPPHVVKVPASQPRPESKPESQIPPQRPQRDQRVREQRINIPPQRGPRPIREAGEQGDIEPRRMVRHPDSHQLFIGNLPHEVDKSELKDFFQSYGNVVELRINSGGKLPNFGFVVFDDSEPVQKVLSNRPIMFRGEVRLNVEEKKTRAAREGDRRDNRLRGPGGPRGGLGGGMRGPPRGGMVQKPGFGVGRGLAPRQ
Technique: RNA Bind-n-Seq
Form: RNA
Matrix: in vitro
Tested at: 1 µM
Setting: whole 134-nt RNA, ends assumed
With: 150 mM KCl
Baseline: input library
Direction: higher = stronger binding
Endpoint: log2 enrichment
Strand = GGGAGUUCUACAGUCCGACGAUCAAGUCCUGUGCUACACAUCGUAUGUACCGAAUCGGAAAAAAAGGUUUUUUUGGAGGAAAGUAUUAUGUUACGCCGUUCGGAUCUGCACUUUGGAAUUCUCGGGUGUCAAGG; result = -0.334
Strand = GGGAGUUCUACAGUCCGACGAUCGCAGGCAGUAAAAACAAAUGGAAAUGCUUCGGAUAGUGGCAGGGGUGGGGGUUGCUAAGGAAAGGGUGGGAUGGGAGUGGGUAAAGAGUUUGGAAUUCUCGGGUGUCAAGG; result = 1.66
Strand = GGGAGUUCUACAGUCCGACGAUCUCCUCAAGUCCUGUGCUACACAUCGUAUGUACCGAAUCGGCGGGCGGGGCGGAAAGUAUUAUGUUACGCCGUUCGGAUCUGCACUUCCAGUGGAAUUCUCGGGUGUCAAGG; result = -0.321
Strand = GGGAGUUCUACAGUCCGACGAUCAAGUCCUGUGCUACACAUCGUAUGUACCGAAUCAAAUUUAAAUUUUUAAAUUUAAAAAAGUAUUAUGUUACGCCGUUCGGAUCUGCACUUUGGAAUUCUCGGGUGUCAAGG; result = -0.835
Strand = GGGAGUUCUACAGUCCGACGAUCCUGUGCUACACAUCGUAUGUACCGAAUCGGGGCCCCCCCGGGGCCCCCCCGGCCCCCCCGGGAAAGUAUUAUGUUACGCCGUUCGGAUCUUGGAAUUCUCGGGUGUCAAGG; result = -0.615
Strand = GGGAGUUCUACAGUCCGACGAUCCAAGUCCUGUGCUACACAUCGUAUGUACCGAAUCGGUUUGGAAAGGAAAAAAAGGAAAGUAUUAUGUUACGCCGUUCGGAUCUGCACUUCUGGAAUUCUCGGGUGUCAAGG; result = -0.0883
Strand = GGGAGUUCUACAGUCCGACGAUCCAUCAAAAUAGCUACAAACCAUACUAAAUUAUUCCAUUUGCAACUUAUCCCCAACAGGUAUGUUCUAAAAAUAGUUUUUUUUUGUCAUUUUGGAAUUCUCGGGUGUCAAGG; result = -0.085
Strand = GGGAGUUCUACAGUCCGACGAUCAGUCCUGUGCUACACAUCGUAUGUACCGAAUCGGGGAAAAGGAAAAGGGGAAAAGGGGAAAGUAUUAUGUUACGCCGUUCGGAUCUGCACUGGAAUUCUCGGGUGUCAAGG; result = 0.228
Strand = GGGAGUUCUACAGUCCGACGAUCUCAAGUCCUGUGCUACACAUCGUAUGUACCGAAUCGGAGGAAAAAGGAAAAAGGAAAGUAUUAUGUUACGCCGUUCGGAUCUGCACUUCCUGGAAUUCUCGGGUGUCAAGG; result = -0.138
Strand = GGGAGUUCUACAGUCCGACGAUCACCAUGCAGGUGGGCAUCUUUGGGAAGUGGGGCAAGGGGGGGAUAGGGAGGGGGGUAACACUUUGGGAACAGGUGGUAAAAGGUCGUUUCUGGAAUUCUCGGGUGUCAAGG; result = -0.521
